Experimental data from different studies.
Every numbered part comes from another study and shows a few of its results, in no order. Positions count from the first letter of the parent shown.

Series 1 — method: RNA Bind-n-Seq; form: RNA; matrix: in vitro; concentration: 200 nM; notes: whole 134-nt RNA, ends assumed; with: 150 mM LiCl; relative to: input library; reading: higher = stronger binding; endpoint: log2 enrichment; all molecules: 7-deaza-guanosine replaces G
Target: Fragile X messenger ribonucleoprotein 1, C-terminal low-complexity region (Fmr1, Mus musculus, UniProt P35922)
All sequences stand within: GGGAGUUCUACAGUCCGACGAUC … UGGAAUUCUCGGGUGUCAAGG
Sequence = UCCUGUGCUACACAUCGUAUGUACCGAAUCGGGGUUUUUGGGGUUUUUGGGUUUUUGGGAAAGUAUUAUGUUACGCCGUUCGGAUCUGCA; value = 0.301
Sequence = AAGUCCUGUGCUACACAUCGUAUGUACCGAAUCGGGGCCCGGGGCCCGGGCCCGGGAAAGUAUUAUGUUACGCCGUUCGGAUCUGCACUU; value = -2.57
Sequence = CUCAAGUCCUGUGCUACACAUCGUAUGUACCGAAUCGGAAGGGAAGGGGAAGGAAAGUAUUAUGUUACGCCGUUCGGAUCUGCACUUCCA; value = -0.249
Sequence = CAAGUCCUGUGCUACACAUCGUAUGUACCGAAUCGGUGGUUUUUGGAAAAAAAGGAAAGUAUUAUGUUACGCCGUUCGGAUCUGCACUUC; value = -0.976
Sequence = ACCAUGCAGGUGUGCAUCUUUGGGAAGUGGGGCAAGGGGGGGAUAGGGAGGGGGGUAACACUUUGGGAACAGGUGGUCCCAGGUCGUUUC; value = 1.27
Sequence = GCAGGAAGUAAAAACAAAUGGAAAUGCUUCGGAUAGUGGCAGGGGUGGGGGUUGCUAAGGAAAGGGUGGGAUGGGAGUGGGUAAAGAGUA; value = 1.63
Sequence = UUUCUAGGCAAGAGGAGGAACGACGUAGAAGAGAGGAAGAGAUGAUGAUUCGUCAACGUGAGAUGGAAGAACAAAUGAGGCGCCAAAGAG; value = 1.6
Sequence = CCUGUGCUACACAUCGUAUGUACCGAAUCGGCCCCCCCGGGGCCCCCCCGGGCCCCCCCGGAAAGUAUUAUGUUACGCCGUUCGGAUCUG; value = -0.608
Sequence = AGUCCUGUGCUACACAUCGUAUGUACCGAAUCGGGCCCCCGGCCCCCGGGGCCCCCGGAAAGUAUUAUGUUACGCCGUUCGGAUCUGCAC; value = -2.89
Sequence = AAGUCCUGUGCUACACAUCGUAUGUACCGAAUCAAACCCAAAUUUUUAAAUUUAAAAAAGUAUUAUGUUACGCCGUUCGGAUCUGCACUU; value = -1.33
Sequence = CAAGUCCUGUGCUACACAUCGUAUGUACCGAAUCGGGAGGGAGGGAAAAAAAGGGAAAGUAUUAUGUUACGCCGUUCGGAUCUGCACUUC; value = -0.316

Series 2 — method: RNA Bind-n-Seq; form: RNA; matrix: in vitro; concentration: 365 nM; relative to: no-protein control; reading: higher = stronger binding; endpoint: RBNS enrichment (R)
Target: RNA binding protein fox-1 homolog 2, RRM domain, GST-SBP tag (RBFOX2, Homo sapiens, UniProt O43251-10, residues 100-194)
Notes: natural RNA segment, single round, ends assumed
All sequences stand within: GGGAGUUCUACAGUCCGACGAUC … UGGAAUUCUCGGGUGCCAA
Target sequence (chain): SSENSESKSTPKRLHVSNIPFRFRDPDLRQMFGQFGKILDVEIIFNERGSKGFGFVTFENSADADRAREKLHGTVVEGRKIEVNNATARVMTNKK
Sequence = UGUGUUUCUUGGAUAGGGGCCAGUGCAGUGCCAUCCUACAGGUGGCUGGAGCAGCUGCUUUGCAACCUGAUCACCUUGAGUUCUGAGCAGGGACUAGGCUUGCAGGUGAG; value = 0.776
Sequence = UUAAGUGAGGCCCAUUCUUGUUUUUACAUCGGUCCUUUGUGGUUUUUCUGGGCCAGCAGAGAUUCUGCACCCCAACUCCCAGGAGAAAAUGUAAUACCUGAGCAAGCACA; value = 0.496
Sequence = AACUAUUUAAGAGCCAAUUAAACUAUGAAAUAGUUAUAAAAUUAUUUUUAAUAUUUAAGGCCUUGAAAUUAUAUUCCAAGGCAAAUCUAAAUGGGUGUAGUUGUAUAUGC; value = 0.483
Sequence = UCAAGGACAAAUCUGUAAGUUUCUUAUUUCUGUAGUGCAAGUAAAAUUUCACUUUUUGAAACUAUAGAGAGAUCCCUUUCUGAUUAGCCUACAGAACUUAAAGUGAGGGA; value = 0.427
Sequence = GGCAUGCUAAGUCCUGUAAUUCCCUCUAACAUUGAGUCAGAUACAUCAUGGGACAUCAUGGGAUGGCAGCUAGAUAGCAUGAAACAAUUUAUCUUCUCAUAUUUGACAAA; value = 41.7
Sequence = AAGGGGCCAGAGGCUCGUUGACUGGCUGUGUGUUGGGAUUGAGUCUGUGCCACGUGUUUGUGCUGUGGUGUGUCCCCCUCUGUCCAGGCACUGAGAUACCAGCGAGGAGG; value = 1.7
Sequence = GUGUUUUUAUUGCUCGCCCAGACACCAUGUGCAAUAAGAUUGGUGUUCGUUUCCAUCAUGUCUGUAUACUCCUGUCACCUAGAACGUGCAUCCUUGUAAUACCUGAUUGA; value = 0.601
Sequence = AAGUGAUGCCCUUCUGGAGACUGAGGGUGUGGCCUUCCUCCCAUGCUCUCUCUGGGUGAGUGUGGGGUCUGGGUGUCCUUUGCAUUCCCCUCCUCACCCCAGGUGCCUUA; value = 0.687
Sequence = UGAGAGUACUCACUUUUCACUUGUCUUGCUCUUAGAUUGGGCCAUGGCUUUCAUCCUGUGUCCCCUGACCUGUCCAGGUGAGUGUGAGGGCAGCACUGGGAAGCUGGAGU; value = 0.476
Sequence = AAUGAAAAUAUUCUAGUUAUUAAACUCUUGGUCUAGAAAUACUUCUGUCUGUAAACUUUGACAUCCAACCUGGAAAUCUAUUUGGUCAUGGUUAAAACAUUAUUCUCCUA; value = 0.389
Sequence = UCAGCGUUGGGGCUUCUUAGUAUCAGGACCUCUCUGAGGUAAGGACUUUCCUGUGUGGCCACAGAAACCUGGGGGCAUUCCGUUGCAGAGGUGUCCUCUGUCACGUGUGU; value = 0.285
Sequence = AUGUAGCUAUGGCUGUCCUUGAAUUCUCUCUGUAAACCAGGCUGCCCUUGAACUUGUGAUCCUUCUGCCUCAGUUGCCUCCCAAAUUAUAGGGUUAUGUCACCAACUUGC; value = 0.698

Series 3 — method: protein binding microarray; form: double-stranded DNA, one strand shown; matrix: in vitro; concentration: not given; relative to: not given; reading: higher = stronger binding; endpoint: E-score
Target: Histone acetyltransferase KAT6A, winged helix 1, GST fusion (KAT6A, Homo sapiens, UniProt Q92794, residues 1-85)
Notes: 8-mer, flanks averaged, mean of 2 arrays, mostly near background
Residues (chain): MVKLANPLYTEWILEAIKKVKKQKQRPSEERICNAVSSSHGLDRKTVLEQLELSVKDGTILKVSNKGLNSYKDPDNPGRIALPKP
Sequence = ACTTGTAC; value = -0.0503
Sequence = ACATCAGT; value = -0.183
Sequence = AAGCCCCG; value = 0.134
Sequence = CACATACG; value = 0.0558
Sequence = AGAACTTG; value = -0.152
Sequence = AGTTCACA; value = -0.202
Sequence = ATAGTATC; value = 0.0481
Sequence = GCTCTGAA; value = -0.0384
Sequence = GTTTTTAA; value = 0.00892
Sequence = CAGACGCA; value = -0.0436
Sequence = AAAAACTC; value = -0.195
Sequence = AGATCTGG; value = -0.158
Sequence = CTCAACTC; value = -0.352
Sequence = CCTCCACC; value = -0.0985
Sequence = AGGGTTAG; value = -0.0791
Sequence = CATGTCAC; value = 0.0375
Sequence = CAATACCA; value = -0.107
Sequence = GTTGGTTA; value = -0.168

Series 4 — method: RNAcompete; form: RNA; matrix: in vitro; concentration: 20 nM; notes: 7-mer, probes averaged, single round; relative to: mean of 7-mers; reading: higher = stronger binding; endpoint: 7-mer Z-score
Target: PABPC1L2, full length, GST fusion (mouse, UniProt A0ABA7IW68)
Construct (chain): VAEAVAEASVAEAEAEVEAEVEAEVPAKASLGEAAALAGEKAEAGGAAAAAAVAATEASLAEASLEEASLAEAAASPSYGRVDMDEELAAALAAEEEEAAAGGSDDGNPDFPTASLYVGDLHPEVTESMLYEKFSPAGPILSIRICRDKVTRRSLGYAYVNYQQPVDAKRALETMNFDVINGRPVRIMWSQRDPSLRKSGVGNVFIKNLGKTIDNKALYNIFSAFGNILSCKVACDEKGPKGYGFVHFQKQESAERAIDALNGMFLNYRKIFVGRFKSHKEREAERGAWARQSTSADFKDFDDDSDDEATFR
Sequence = UGUUUCG; value = -0.527
Sequence = UCGUGCC; value = -0.291
Sequence = CACACUU; value = -0.142
Sequence = AAUACUG; value = 0.189
Sequence = AGAGUUG; value = -0.208
Sequence = UUUCCUG; value = -0.296
Sequence = UGGGUAC; value = 0.14
Sequence = AAUGCAC; value = 0.12
Sequence = CGACGAG; value = 0.216
Sequence = UUCCAGU; value = -0.255
Sequence = AACUUAA; value = 0.314
Sequence = CCAUCUU; value = -0.329
Sequence = CUUGAUG; value = -0.175
Sequence = UUCGAGG; value = 0.017
Sequence = GACACCG; value = -0.124
Sequence = AGACGAU; value = -0.208
Sequence = UUUACCG; value = -0.222
Sequence = GGUUCAA; value = 0.0334

Series 5 — method: DHFR PCA, deep sequencing; matrix: yeast; with: (+)-ABA 2500 µM; relative to: wild-type fitted maximum; reading: higher = stronger binding; endpoint: relative binding score
Target: ABI1, truncated, D143A, DHFR fusion (Arabidopsis thaliana)
Notes: methotrexate growth selection, single substitutions
Starting sequence: PYL1, truncated, DHFR fusion (Arabidopsis thaliana); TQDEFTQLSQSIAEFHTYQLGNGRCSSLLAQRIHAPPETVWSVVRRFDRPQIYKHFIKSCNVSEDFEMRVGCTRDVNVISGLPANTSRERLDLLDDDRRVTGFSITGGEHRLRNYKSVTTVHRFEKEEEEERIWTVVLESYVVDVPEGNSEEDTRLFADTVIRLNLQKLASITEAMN; partner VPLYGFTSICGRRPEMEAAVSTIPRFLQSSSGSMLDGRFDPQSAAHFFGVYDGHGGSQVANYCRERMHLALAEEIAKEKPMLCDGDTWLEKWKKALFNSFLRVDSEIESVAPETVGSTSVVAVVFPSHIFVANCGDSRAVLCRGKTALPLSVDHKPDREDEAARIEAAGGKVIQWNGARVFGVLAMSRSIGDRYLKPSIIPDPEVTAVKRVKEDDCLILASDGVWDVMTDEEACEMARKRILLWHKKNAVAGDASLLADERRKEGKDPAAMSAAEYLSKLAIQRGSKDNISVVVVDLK
Substitution = T101K; value = 54.6%
Substitution = Q7C; value = 103%
Substitution = R111F; value = 69.2%
Substitution = G102W; value = 20.3%
Substitution = R163H; value = 88.6%
Substitution = Q2S; value = 96.9%
Substitution = L93Y; value = 103%
Substitution = T1Q; value = 111%
Substitution = F56L; value = 94.2%
Substitution = K58S; value = 94.1%
Substitution = D144P; value = 83.9%
Substitution = R98M; value = 104%
Substitution = T101G; value = 60%
Substitution = R74D; value = 3.15%
Substitution = A13N; value = 94.4%
Substitution = M176F; value = 88.9%
Substitution = N165S; value = 71.1%
Substitution = Q19E; value = 97.4%
Substitution = E139N; value = 95.7%
Substitution = Q10V; value = 100%
Substitution = H34L; value = 98.5%
Substitution = A13T; value = 91.1%

Repeated from above (series 2):
Sequence = GUGUUUUUAUUGCUCGCCCAGACACCAUGUGCAAUAAGAUUGGUGUUCGUUUCCAUCAUGUCUGUAUACUCCUGUCACCUAGAACGUGCAUCCUUGUAAUACCUGAUUGA; value = 0.601
Sequence = UUAAGUGAGGCCCAUUCUUGUUUUUACAUCGGUCCUUUGUGGUUUUUCUGGGCCAGCAGAGAUUCUGCACCCCAACUCCCAGGAGAAAAUGUAAUACCUGAGCAAGCACA; value = 0.496
Sequence = AUGUAGCUAUGGCUGUCCUUGAAUUCUCUCUGUAAACCAGGCUGCCCUUGAACUUGUGAUCCUUCUGCCUCAGUUGCCUCCCAAAUUAUAGGGUUAUGUCACCAACUUGC; value = 0.698
Sequence = AAGGGGCCAGAGGCUCGUUGACUGGCUGUGUGUUGGGAUUGAGUCUGUGCCACGUGUUUGUGCUGUGGUGUGUCCCCCUCUGUCCAGGCACUGAGAUACCAGCGAGGAGG; value = 1.7
Sequence = UGUGUUUCUUGGAUAGGGGCCAGUGCAGUGCCAUCCUACAGGUGGCUGGAGCAGCUGCUUUGCAACCUGAUCACCUUGAGUUCUGAGCAGGGACUAGGCUUGCAGGUGAG; value = 0.776
